# Assay results pooled from the literature.
# Each numbered part is a random draw from the data of one study; scales do not carry over between parts. Positions count from the first letter of the parent shown.

# Block 1
# Target: Hepatocyte nuclear factor 3-alpha (Foxa1, Mus musculus, UniProt P35582, residues 1-468, full length assumed)
# Sequence of UniProt P35582 (whole entry, looked up): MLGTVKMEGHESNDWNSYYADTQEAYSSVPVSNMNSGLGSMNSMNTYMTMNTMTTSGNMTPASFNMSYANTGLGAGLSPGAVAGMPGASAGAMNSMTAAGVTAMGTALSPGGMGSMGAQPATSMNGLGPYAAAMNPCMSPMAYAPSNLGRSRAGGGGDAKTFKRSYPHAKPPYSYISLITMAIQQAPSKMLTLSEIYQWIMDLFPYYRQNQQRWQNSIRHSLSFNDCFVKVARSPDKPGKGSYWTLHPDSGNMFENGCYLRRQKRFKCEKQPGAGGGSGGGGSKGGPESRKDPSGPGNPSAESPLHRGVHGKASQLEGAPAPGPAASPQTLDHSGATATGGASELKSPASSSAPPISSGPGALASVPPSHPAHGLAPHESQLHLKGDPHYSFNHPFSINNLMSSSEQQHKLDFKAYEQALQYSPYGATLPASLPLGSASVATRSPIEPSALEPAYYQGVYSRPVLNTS
# Technique: EMSA with sequencing
# Form: double-stranded DNA, one strand shown
# Medium: in vitro
# Concentration: 10 and 20 nM
# Notes: whole designed probe, mean of two concentrations, ends assumed
# Reference: negative control set to 0
# Reading: higher = stronger binding
Strand,normalised bound fraction [ratio]
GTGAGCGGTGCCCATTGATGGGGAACGAAATAAAATGCGATCACTTTTCACAATGATTCTTGGAGAAACCACATAATGGCTAAAGCAGCCTAAAATTACTTGGGATAGGTTAAATAAAGTAAACATGGCTTATTAGATTTCCATAGAGTTAATAGTCTACATAGTCTAATGTTTTATAGACAAAACCTCTGTCATTCTGTTTTATAGAGTAACTCCTACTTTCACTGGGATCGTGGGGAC,0.395
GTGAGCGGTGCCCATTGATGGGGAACTTTCCAGCCCTTAGTTTCTGGCATTTAACCTGACTCTGGTCCCTGAATGGCATGGGAGTGCTTTCAACCACAGGTTTCCACATTCATGCAAAAGCAAACAAGTGTGATCTACAGAGCTGACTCATTCATCTTTATTTGCTTTGTGTTTCCAATGGAGAAAGAGCTTGGGAAGGGAGGATCCTAATTGTCTAAATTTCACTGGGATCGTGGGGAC,0.441
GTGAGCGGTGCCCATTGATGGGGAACCTCATTCCTTGCTTCCGCCAATAATCTGACTAGTAAAGAAGTCACTGCATGCCACAAATTGTCAGTGCTGACTTCCTCAACAAGGAAGTTATTTATTTACTTATTTAATATAGAGTGACTCAGTATGCAAATTCCATCTTGAGAATACCAACTCCTGATGCCAACTGATTGTCAGTCATGGCTACAACAGGAGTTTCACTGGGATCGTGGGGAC,0.444
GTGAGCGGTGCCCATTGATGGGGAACGGCTGTTTAGGTAGCTGGCAGGAAGTAGTATGTGTCTCCAGAGCATAAAATTGGCCGCAAAGTAGGTAGGGCCTATGAAAATACTGATGTAATGTAAACATTGTATTTCTAAACTATTTACATGCTCATCCCTACCCTACATGAGAGGTCAGCTCTACCACTAAGAGGTCCCACATGGACTTCTACAATATTCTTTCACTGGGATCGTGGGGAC,0.485
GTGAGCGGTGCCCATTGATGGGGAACCAATGGGGTAGGTCAGCCCCAGTGAACTCTCAAATGACCACTGAAGGAGGAAGTGAGTGCAGAGTGTGATACCACTCACATCCCAGCCCAGACAGATTGCTCAGCTGGGAGGAGTGTTGCAATTCTTCTTCCTGCAGAGATAACACCCCTTCTCATGGCTTCAGGCATCACCTATCTCCTCTAGGCTGCGCTCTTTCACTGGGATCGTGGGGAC,-0.0715
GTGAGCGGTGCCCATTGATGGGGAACGAAAAGTGCAAAGCGTTGGCATCTGGGTCCTTCGTGAAGCTGTGTGATTCTGGACTTTGGACTGTAGTCCACTGTAGCCTGCCTTCTCACTGTGTAAATACATAACTACATGGGCTCCGGTCAGCTTGCCACACGCCACAGGCTATGCCTAATTCTACAAAGCCTGAAGGAAAAATACTGTGAAAAATACTTATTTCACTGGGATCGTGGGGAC,0.314

# Block 2
# Target: CCNA2, cyclin fold, Cln2 fusion (human)
# Technique: yeast growth competition, sequencing
# Medium: yeast
# Notes: strong parent motif
# Reference: not given
# Reading: higher = stronger binding
# Starting sequence: PKN2 docking peptide (human); VSAVQKLDFSDTM
Variant,normalised enrichment score
Q5R,5.38
V4W,1.05
M13W,2.28
S10N,1.4
V4E,-0.178
M13P,1.92
F9M,-0.659
F9H,-0.268
T12E,3.24
D8C,1.56
A3H,0.712
S2V,1.96
S2L,1.32
S10A,1.27
V1K,3.34
V1S,2.07
L7A,0.192
V4I,1.46
S2P,1
L7K,-0.11

# Block 3
# Target: RING finger protein unkempt homolog, zinc fingers 1-6, GST-SBP tag (UNK, Homo sapiens, UniProt Q9C0B0, residues 30-357)
# Technique: RNA Bind-n-Seq
# Form: RNA
# Medium: in vitro
# Concentration: not given
# Notes: RNA with constant flanks, human and mouse sites, ends assumed
# Reference: input RNA pool
# Reading: higher = stronger binding
# Construct (chain): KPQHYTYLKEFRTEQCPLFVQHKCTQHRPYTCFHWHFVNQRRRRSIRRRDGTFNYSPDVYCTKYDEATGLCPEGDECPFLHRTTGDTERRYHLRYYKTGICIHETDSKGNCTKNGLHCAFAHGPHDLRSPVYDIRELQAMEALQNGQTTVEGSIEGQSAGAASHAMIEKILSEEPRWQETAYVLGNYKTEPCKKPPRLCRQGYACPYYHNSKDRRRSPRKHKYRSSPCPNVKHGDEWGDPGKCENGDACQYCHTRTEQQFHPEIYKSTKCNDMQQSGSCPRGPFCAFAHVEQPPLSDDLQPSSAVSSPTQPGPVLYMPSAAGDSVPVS
Strand,bound/input enrichment
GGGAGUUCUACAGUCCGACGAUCGCUUUUGAUGAUGCAAUUGCAGAACUGGAUACGCUGAGUGAAGAAAGCUAUAAGGACUCUACACUUAUCAUGCAGUUGUUACGUGAUAAUCUGACACUAUGGACUUCAGACAUGCAGGGUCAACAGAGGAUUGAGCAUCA,0.215 ratio
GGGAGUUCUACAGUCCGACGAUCUGUACCGACCUUCUGAACAAGGCCAACACCUAUGCAGAGCAACAUUUUGCAGAUGUUGUACUUAGUGAAGAAUUUCUCAAUCUUGGCAUCGAACAAGUGUGCAGCUUAAUCUCAAGUGACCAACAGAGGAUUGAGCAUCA,0.0838 ratio
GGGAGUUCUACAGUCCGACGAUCUAUCCAGUUAAAAAACGGGUGAAAAUACAUCCCAACACAGUGAUGGUGAAAUAUACUUCUCAUUAUCCCCAGCCUGGCGAUGAUGGAUAUGAAGAAAUCAAUGAAGGCUAUGGAAAUUUUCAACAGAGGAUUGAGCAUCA,0.162 ratio
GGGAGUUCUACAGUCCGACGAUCGUAAUCCUGGUUGCUUGGGAAGUUGAGAUAGGAUAACAAGUUCAAGGCCAGCCUGCACAACUUAGAACCUGUCUGGAAAUGAGAAAUAACUACCCUCACGAGGACUAUUAACAUAGGAUUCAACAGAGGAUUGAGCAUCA,0.298 ratio
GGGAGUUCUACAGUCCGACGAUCGCUGACGACUUGGCGAGCAAGUUUCAGUUCAGUCGUGGCAUGCGCCGCAGUUAUGAUGCAGGGUUCAAGCUGAUGGUGGUGGAGUACGCCGAGAGCACCAACAACUGUCAGGCUGCCAAGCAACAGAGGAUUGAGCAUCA,0.107 ratio
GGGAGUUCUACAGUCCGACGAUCGAUCCUGGUCUUGUAUUCAUUGUGGUAGAGUGUCCUGAUGAAGGAUUCAUCCUGCCCAUCUGUGAGAACGACACCUUUAAAAGGUACCAGGCAGAGGCUGAUGCACCUGUGGCGCUGGUGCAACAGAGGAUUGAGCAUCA,0.194 ratio
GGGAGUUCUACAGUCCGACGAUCGAAUAUGUGGCAAUCAAAACCAAGAAACGAAUCUUGCUGUACACCAUGAACCCCAACAAAUUUAGAGCUUGCCAGUUUCUGAUCAAGUUUCAUGAAAGGAGGAAUGACAAGAUUAUUGUCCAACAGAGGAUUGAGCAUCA,0.282 ratio
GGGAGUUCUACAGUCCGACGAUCAUGAAGCCAGCCGGUACAGACCCAAGGAUCUUGUCUUUAGCUGCUGAAGUUGCAAAAAGUCCUGAACAAAAUGUUCCUGUUAUAUUAUUGAAGUUAAAAGAAAUAAUAAACAACACCCCUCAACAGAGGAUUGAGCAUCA,0.113 ratio
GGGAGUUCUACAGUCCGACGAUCAGCAAAACCAGAGCAUCCUUAAAGUGCAGGAAGUCUUUGCCGUCGUUGUUAAGCAUGUGUUUUAGUCAGGUCAGAAACAUCAGGUACCACAGCUCCCCAGCACUCUCUUGAGGCUAGAAACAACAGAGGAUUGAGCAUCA,0.2 ratio
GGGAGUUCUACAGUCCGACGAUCAGUCCUGACUGCUUGGGACAUGCAGGACUUGUAUAUGAGUAUACAUUGGGAGAAGAGAAGUUUACCUUUAUUGAGAAAUGUAACAACCCUCGUUCUGUCACAUUAUUGAUCAAAGGACCACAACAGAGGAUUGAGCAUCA,0.326 ratio
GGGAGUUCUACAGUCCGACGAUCCCGCCGCCGCCGCCGCCUCUCCUUAGUCGCCGCCAUGACGACCGCGUCCACCUCGCAGUCUUACUACUUUGACCGCGAUGAUGUGGCUUUGAAGAACUUUGCCAAAUACUUUCUUCACCACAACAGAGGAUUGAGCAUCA,0.229 ratio

# Block 4
# Target: RNA binding protein fox-1 homolog 2, RRM domain, GST-SBP tag (RBFOX2, Homo sapiens, UniProt O43251-10, residues 100-194)
# Technique: RNA Bind-n-Seq
# Form: RNA
# Medium: in vitro
# Concentration: 365 nM
# Notes: natural RNA segment, single round, ends assumed
# Reference: no-protein control
# Reading: higher = stronger binding
# Target sequence (chain): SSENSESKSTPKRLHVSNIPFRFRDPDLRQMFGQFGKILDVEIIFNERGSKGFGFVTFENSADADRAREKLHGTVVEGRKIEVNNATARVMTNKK
Strand,RBNS enrichment (R)
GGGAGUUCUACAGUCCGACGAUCUCCAACAUCACCAGCCUCGGUGACCUCAGAUGAGCCAGAUAUGCAAGAGUGAAGGAUUAUGGGAAAACGUCCAUUCCUUUUCCGUGUUUUUGAAGCCCACAGUUUUAGUUUGGAAUUCUCGGGUGCCAA,0.415
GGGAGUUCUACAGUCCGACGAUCAAGGGAGUCUUGUAAAGUUGCCGAGGGUAGGUUCAUCUCCAGGUUUCGGGAUUCCCAUCCGUCCUGGCGAUCCUGCCAGCAGUGGGUGGGCAGCCUGAGCUCCCUCGGGCUGGAAUUCUCGGGUGCCAA,0.244
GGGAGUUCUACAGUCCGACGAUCAGCGAGGAGAUGCUCCUUGGGCCCUUUGAGUGCAGUCCUGAUCAGAGCCGUGGUCCUUUGGGGUGAACUACCUUGGUUCCCCCACUGAUCACAAAAACAUGGUGGGUCCAUGGAAUUCUCGGGUGCCAA,0.43
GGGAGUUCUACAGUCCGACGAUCUGGUAACUCCAAUAUUUGGUUAAAAAAACUAUACAAAUCAGAAUAGUACUAAAAUACUGUAGAAUUUUAGCAUUUUUAUUUUGCACUUUGUGUGGAUUGAGGUGUUCAGAUGGAAUUCUCGGGUGCCAA,0.821
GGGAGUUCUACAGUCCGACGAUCCAUUGUCACUAAUAACUUCUGUGUUCUCCCAGGCAGUGUUAUAACAGAAGGGCAAUGAAAACAUUGGACAUGACCAUGAGUGCUUCCUUUCCUUAACUCUAGGUUUGUAGUGGAAUUCUCGGGUGCCAA,0.474
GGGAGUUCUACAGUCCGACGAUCAGGAAAGAAAGGAUAUAGGAAGAGAGGGAAGCAGAAGGCAGGCAUUUUUCUAUUUUCCCCACAAAUUAUUUCAAAAAAAAUCUGUAUUUUCUGGGAUAUGUCAUUGGCAAUGGAAUUCUCGGGUGCCAA,0.572
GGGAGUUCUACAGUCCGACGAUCGUUUUGGACAUCAAGCAUCCUAAUGGUACCUCCUUUGUACAAUGCCAAAAUGAGCCUCGGUGUCAGAGGAUACAACAAAAACAGCAAUUUUGAUGCCUUUGAAAUGAUGAUGGAAUUCUCGGGUGCCAA,0.747
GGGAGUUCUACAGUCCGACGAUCUGGAUGUAAGCUUGCUUGAGAACUAUGGGUUUUAGCUAUUCUGGUGUCUCCCUGAUUUUCUACAGCGCCAGGAUCCUAGUUUGGUGAGGUUUUAAAUUUAAUCUUAUUUUUGGAAUUCUCGGGUGCCAA,0.528
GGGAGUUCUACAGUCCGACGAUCGAGUGCCCUUUUCUGGCACUCUCAGACCAAAAGUGUUUAUUGUGUCAUUUGUCCUUUGUCUAGGAGAGGACAGGACUCUCUUUUUCCUCUUCCUGGUAGUUGUAAUGACCUGGAAUUCUCGGGUGCCAA,0.387
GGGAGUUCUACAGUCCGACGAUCGGUGGCCCUUGCAGUUCAGCACCACCCUAGUCCCUUCCCCUCCCUGGCUCCCAUGACCAUACUGAGGGACCAACUGGGCCCAAGACAGAUGCCCCAGAGCUGUUUAUGGCUGGAAUUCUCGGGUGCCAA,0.396
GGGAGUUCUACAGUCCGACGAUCGAGACAAGAUUGAGAAAGAGCCAUGUGGCUUGGCUCUAGAAACGUCAUUAUCAUUAGGACCAUCAGAUUUUAGAUUAAGCUGCUAUUGAAUUAAUAAAAUCCCAAUGAAGUGGAAUUCUCGGGUGCCAA,0.961
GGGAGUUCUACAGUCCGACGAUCGUCUGGCUCAAGUGGUGGAAGAGUGAGGGAGUCUGCAGUUUGUAAGUCUCGUUCUGUUGUGUUCUGAGAAGAUGCCUGAGGCAGUAUGGGAGUUUCAACACCCCUGCUGUUGGAAUUCUCGGGUGCCAA,0.732

# For quick reference, copied from above (block 2):
Variant,normalised enrichment score
S2L,1.32
D8C,1.56
Q5R,5.38
V1S,2.07
